{"data": "Results from different studies", "note": "Compare with care: the assays were run in different laboratories. ± gives the spread as reported."}
{"SMILES": "N#Cc1cc(C(=O)OCC[18F])c(C(F)(F)F)nc1N1CCN(C(=O)Cc2ccccc2)CC1", "test": "PET", "system": "human, contralateral normal brain", "endpoint": "SUVmean", "result": "0.9 ± 0.16"}
{"SMILES": "O=C1/C(=C/c2ccc(O)c(O)c2)Oc2c1c(O)cc1oc3cc(O)c(O)cc3c21", "test": "DPPH scavenging, absorbance", "endpoint": "EC50", "result": "110 µM"}
{"SMILES": "C=C(c1ncc(C(=O)O)cn1)c1cc2c(cc1C)C(C)(C)CCC2(C)C", "test": "RNA sequencing, measured: Ccl6 mRNA", "system": "rat, brain", "setting": "dose not given, 24 h, single dose", "scale": "reference: vehicle", "endpoint": "log2 fold change", "result": -1.46}
{"SMILES": "CC[C@H]1[C@@H](O)[C@@H]2[C@H](CC[C@]3(C)[C@@H]([C@H](C)CCOS(=O)(=O)[O-])CC[C@@H]23)[C@@]2(C)CC[C@@H](O)C[C@@H]12.[Na+]", "test": "immunohistochemistry, measured: galectin-3", "system": "ob/ob NASH mouse model, liver", "setting": "3.0 mg/kg, 16 weeks", "endpoint": "fractional area", "result": "5.4 ± 0.2%"}
{"SMILES": "O=c1c(OCc2ccccc2)c(-c2ccc(Cl)cc2)oc2ccccc12", "system": "diabetic rat", "setting": "5 mg/kg, day 21, p-nitrophenyl β-glucoside induced", "endpoint": "blood glucose", "result": "176 ± 4.79 mg/dL"}
{"SMILES": "c1ccc(-n2c(-c3ccco3)nc3ccccc32)cc1", "test": "ABTS scavenging, absorbance", "endpoint": "IC50", "result": "1.62 µM"}
{"SMILES": "CN(C)c1ccc(-c2oc3ccccc3c(=O)c2OCc2ccccc2)cc1", "system": "diabetic rat", "setting": "5 mg/kg, day 14, p-nitrophenyl β-glucoside induced", "endpoint": "blood glucose", "result": "208 ± 4.88 mg/dL"}
{"SMILES": "Cc1cc(O)cc(O)c1C(=O)c1c2c3c(c(O)cc(C)c3oc1=O)C(=O)c1c(O)cc(O)cc1-2", "system": "Bel-7402 xenograft, mouse", "setting": "intraperitoneal, 14 mg/kg, day 21", "endpoint": "T/C", "result": "51.2%"}
{"SMILES": "CC[C@H](C)[C@H](NC(=O)[C@H](CCC(=O)O)NC(=O)[C@H](C)NC(=O)[C@@H](NC(=O)[C@H](Cc1c[nH]cn1)NC(=O)[C@@H](NC(=O)[C@H](CCC(=O)O)NC(=O)[C@H](C)NC(=O)[C@@H](NC(=O)[C@H](CC(C)C)NC(=O)[C@H](CCCCN)NC(=O)[C@H](Cc1c[nH]cn1)NC(=O)[C@H](CC(C)C)NC(=O)[C@H](Cc1ccccc1)NC(=O)[C@H](C)NC(=O)[C@H](CCCNC(=N)N)NC(=O)[C@H](CCCNC(=N)N)NC(=O)[C@H](CCCNC(=N)N)NC(=O)[C@H](C)NC(=O)[C@H](CC(=O)O)NC(=O)[C@H](CCC(N)=O)NC(=O)[C@@H](NC(=O)[C@H](Cc1c[nH]c2ccccc12)NC(=O)[C@H](CCCCN)NC(=O)[C@H](C)NC(=O)[C@H](CCCNC(=N)N)NC(=O)[C@H](CCC(N)=O)NC(=O)[C@H](Cc1c[nH]cn1)NC(=O)[C@H](CCSC)NC(=O)[C@H](CC(C)C)NC(=O)[C@H](CCC(N)=O)NC(=O)[C@@H](NC(=O)[C@H](CCC(=O)O)NC(=O)[C@H](C)NC(=O)[C@@H](NC(=O)[C@H](C)N)C(C)C)[C@@H](C)CC)[C@@H](C)CC)[C@@H](C)CC)[C@@H](C)CC)[C@@H](C)O)C(=O)O", "system": "cynomolgus monkey, serum", "setting": "subcutaneous, 2.5 and 10.0 nmol/kg, frank hypercalcaemia", "endpoint": "serum calcium", "result": "13 to 16 mg/dL"}
{"SMILES": "COC(=O)[C@H](CSSC(C)(C)[C@H](NC(=O)[C@H](CCC(=O)NC[C@H](O)[C@@H](O)[C@H](O)[C@H](O)CO)NC(=O)[C@H](CCC(=O)O)NC(=O)[C@H](CCC(=O)NC[C@H](O)[C@@H](O)[C@H](O)[C@H](O)CO)NC(=O)[C@H](CCC(=O)O)NC(=O)[C@H](CCC(=O)NC[C@H](O)[C@@H](O)[C@H](O)[C@H](O)CO)NC(=O)CC[C@H](NC(=O)c1ccc(NCc2cnc3nc(N)[nH]c(=O)c3n2)cc1)C(=O)O)C(=O)O)NC(=O)CC[C@H](NC(=O)c1ccc(NCc2cnc3nc(N)nc(N)c3n2)cc1)C(=O)O", "test": "flow cytometry", "system": "Lewis rat, adjuvant-induced arthritis, blood", "setting": "500 nmol/kg twice weekly × 1.5, added: folic acid, 500-fold molar excess", "endpoint": "CD172+ CD43− monocyte effect", "result": "inhibited"}
{"SMILES": "Cc1ccc(-c2oc3ccccc3c(=O)c2OCc2ccccc2)cc1", "system": "diabetic rat", "setting": "7.5 mg/kg, day 28, p-nitrophenyl β-glucoside induced", "endpoint": "blood glucose", "result": "150 ± 3.89 mg/dL"}
{"SMILES": "CC[C@@H](C)N([11CH3])C(=O)c1nc(-c2ccccc2Cl)c2ccccc2n1", "test": "PET from VT/fP", "system": "rhesus monkey, cerebellum", "setting": "dose not given", "endpoint": "TSPO specific binding", "result": "88%"}
{"SMILES": "O=c1c(OCc2ccccc2)c(-c2cccc([N+](=O)[O-])c2)oc2ccccc12", "system": "diabetic rat", "setting": "5 mg/kg, day 21, p-nitrophenyl β-glucoside induced", "endpoint": "blood glucose", "result": "186 ± 4.91 mg/dL"}
{"SMILES": "COc1ccc2c(c1OC)C(C(Cl)(Cl)Cl)N1CCc3cc4c(cc3C1=C2)OCO4 (centres unmarked)", "system": "rat, STZ-induced diabetic, serum", "setting": "oral, 12 mg/kg, day 28", "endpoint": "triglycerides", "result": "105 ± 4.01 mg/dL"}
{"note": "Excerpt of the above:"}
{"SMILES": "Cc1cc(O)cc(O)c1C(=O)c1c2c3c(c(O)cc(C)c3oc1=O)C(=O)c1c(O)cc(O)cc1-2", "system": "Bel-7402 xenograft, mouse", "setting": "intraperitoneal, 14 mg/kg, day 21", "endpoint": "T/C", "result": "51.2%"}
